# Results of several laboratories.
# Lines come from different studies, so protocols differ.
Molecule,assay,test system,conditions,how to read,measurement,result
C[C@](N)(Cc1ccc(O)c(O)c1)C(=O)O,mitochondrial swelling,BALB/cByJ female mouse liver mitochondria,"30 min, together with: succinate + rotenone",relative to: CaCl2 maximal swelling,EC20,> 400 µM
liraglutide,equilibrium dialysis,human plasma,"10 nM, pH 7.4",,bound fraction,99.9%
Cc1cc(C)c2c(c1)[C@@H](N(Cc1cc(C(F)(F)F)cc(C(F)(F)F)c1)c1nnn(C)n1)CCCN2C[C@H]1CC[C@H](C(=O)O)CC1,,"human, dyslipidemic patients, plasma","oral, 100 mg daily, geometric mean, together with: atorvastatin",,AUC(0-tau) at steady state,5500 ng·h/mL
Cn1c(-c2ccc(C(N)=O)cc2F)nnc1C(C)(C)Oc1c(F)cc(Cl)cc1F,,"young Japanese subjects, plasma","oral, 10 mg single dose, day 1",,Cmax mean,91.9 ng/mL
CNC(=O)c1ccc(-c2cnc3ncc(Cc4ccc5ncccc5c4)n3n2)cc1F,,"healthy human subjects, plasma","oral, 400 mg, geometric mean, together with: rifampicin 600 mg/day",,CL/F,103 L/h
Sc1ncnc2nc[nH]c12,mitochondrial swelling,BALB/cByJ female mouse liver mitochondria,"30 min, together with: succinate + rotenone",relative to: CaCl2 maximal swelling,EC20,> 400 µM
CS(=O)(=O)n1cc2c(n1)CN([C@H]1CO[C@H](c3cc(F)ccc3F)[C@@H](N)C1)C2,,"healthy male human, plasma","oral, 400 mg, fasted, geometric mean",,AUC(0-24h),145 µM·h
CNC(=O)c1cc(Oc2ccc(NC(=O)Nc3ccc(Cl)c(C(F)(F)F)c3)c(F)c2)ccn1,,human,"oral, dose not given, together with: esomeprazole concomitant",relative to: without esomeprazole,AUC(0-24h) change,-3.9%
O=C(O)[C@H](c1ccccc1Cl)N1CCc2sccc2C1,HPLC-MS/MS,feline EDTA plasma,"48 h, -80 °C, storage stability",,deviation from nominal,-10%
O=C(Nc1ccc(OC(F)(F)Cl)cc1)c1cnc(N2CC[C@@H](O)C2)c(-c2ccn[nH]2)c1,,healthy volunteers,"40 mg twice daily, together with: probe substrates",,tolerability,not toxic
C#Cc1cccc(Nc2ncnc3cc(OCCOC)c(OCCOC)cc23)c1,,"Sprague-Dawley rat female, serum","oral, 6 mg/kg daily",,time to therapeutic level,~18 h
C#CCN(C)Cc1ccccc1,mitochondrial swelling,BALB/cByJ female mouse liver mitochondria,"30 min, together with: succinate + rotenone",relative to: CaCl2 maximal swelling,EC20,> 400 µM
O=C(O)c1cc(O)ccc1O,,"human, fasted baseline, cerebrospinal fluid",,,mean concentration,35.3 nM
CN[C@H](CC(C)C)C(=O)N[C@H]1C(=O)N[C@@H](CC(N)=O)C(=O)N[C@H]2C(=O)N[C@H]3C(=O)N[C@H](C(=O)N[C@H](C(=O)O)c4cc(O)cc(O)c4-c4cc3ccc4O)[C@H](O)c3ccc(c(Cl)c3)Oc3cc2cc(c3O[C@@H]2O[C@H](CO)[C@@H](O)[C@H](O)[C@H]2O[C@H]2C[C@](C)(N)[C@H](O)[C@H](C)O2)Oc2ccc(cc2Cl)[C@H]1O,microdialysis,"Danish Landrace pigs, cortical bone","intravenous, 1000 mg, 100 min infusion, together with: meropenem",,AUC(0-last),22600 ng·h/mL
CCN(CC)CCNC(=O)c1c(C)[nH]c(/C=C2\C(=O)Nc3ccc(F)cc32)c1C,,"human, plasma","oral, 20 mg/m2, day 28",,median trough plasma concentration,46.7 ng/mL
C[C@]12CC[C@@H]3c4ccc(O)cc4CC[C@H]3[C@@H]1C[C@@H](O)[C@@H]2O,GC-MS,"breast cancer women on NSAI, serum","vaginal, 0.03 mg, 1 h, day 0",,median serum concentration,0.0141 ng/mL

# For quick reference, copied from above:
Molecule,assay,test system,conditions,how to read,measurement,result
CCN(CC)CCNC(=O)c1c(C)[nH]c(/C=C2\C(=O)Nc3ccc(F)cc32)c1C,,"human, plasma","oral, 20 mg/m2, day 28",,median trough plasma concentration,46.7 ng/mL
C[C@]12CC[C@@H]3c4ccc(O)cc4CC[C@H]3[C@@H]1C[C@@H](O)[C@@H]2O,GC-MS,"breast cancer women on NSAI, serum","vaginal, 0.03 mg, 1 h, day 0",,median serum concentration,0.0141 ng/mL
